Assay results collected from several papers.
Parts stem from different laboratories: compare values within a part only.

Study 1 — technique: RNAcompete; molecule type: RNA; medium: in vitro; tested at: 20 nM; notes: 7-mer, probes averaged, single round; relative to: mean of 7-mers; reading: higher = stronger binding
Target: PABPC1L2, full length, GST fusion (mouse, UniProt A0ABA7IW68)
Construct (chain): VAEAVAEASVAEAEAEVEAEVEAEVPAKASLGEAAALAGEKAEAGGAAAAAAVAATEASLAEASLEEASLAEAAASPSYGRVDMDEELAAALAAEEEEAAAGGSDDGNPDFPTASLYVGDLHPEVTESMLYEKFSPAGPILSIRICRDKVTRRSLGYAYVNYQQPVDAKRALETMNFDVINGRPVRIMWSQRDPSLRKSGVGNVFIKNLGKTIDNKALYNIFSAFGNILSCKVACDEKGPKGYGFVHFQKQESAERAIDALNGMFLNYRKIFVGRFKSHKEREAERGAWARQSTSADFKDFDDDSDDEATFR
Sequence | 7-mer Z-score
AAGCCUC | -0.262
GGACCAA | 0.119
GGGUGUC | -0.0101
CGGGCAU | 0.0515
GUCUUCC | -0.364
AUGUUCG | -0.467
UGCACCG | -0.135
GAUCUGG | -0.0971
GGCCCCU | -0.423
GCUUGAU | -0.171

Study 2 — technique: universal PBM; molecule type: double-stranded DNA, one strand shown; medium: in vitro; tested at: not given; reading: higher = stronger binding
Target: Sal-like protein 4, full length isoform B (SALL4, Homo sapiens, UniProt Q9UJQ4-2, residues 1-616)
Notes: 8-mer, flanks averaged, mean of replicates
Target sequence (chain): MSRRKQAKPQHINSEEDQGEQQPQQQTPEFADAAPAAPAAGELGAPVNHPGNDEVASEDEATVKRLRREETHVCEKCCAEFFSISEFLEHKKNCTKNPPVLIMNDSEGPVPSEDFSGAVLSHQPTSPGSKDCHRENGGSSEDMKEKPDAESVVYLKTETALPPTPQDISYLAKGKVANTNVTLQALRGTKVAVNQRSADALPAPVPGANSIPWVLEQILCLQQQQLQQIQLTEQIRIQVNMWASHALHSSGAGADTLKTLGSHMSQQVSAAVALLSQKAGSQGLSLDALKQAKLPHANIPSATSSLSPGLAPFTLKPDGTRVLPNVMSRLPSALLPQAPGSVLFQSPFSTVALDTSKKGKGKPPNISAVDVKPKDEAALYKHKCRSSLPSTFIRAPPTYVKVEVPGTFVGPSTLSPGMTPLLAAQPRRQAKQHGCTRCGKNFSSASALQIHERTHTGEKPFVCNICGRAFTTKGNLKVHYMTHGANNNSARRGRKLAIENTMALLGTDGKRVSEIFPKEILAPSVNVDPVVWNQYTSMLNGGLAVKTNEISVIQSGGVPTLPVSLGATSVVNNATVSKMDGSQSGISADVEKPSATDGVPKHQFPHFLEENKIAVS
Sequence | E-score
TGAGGAAA | 0.15
CAGAGCCG | -0.236
TGTCTTAA | 0.187
GGGACATA | 0.0242
CATGCACA | 0.0932
GTCTCTCA | -0.163
CGAGGGAA | -0.0773
CTCACAAG | 0.0115
GATAGTGA | 0.131
GCCTTCAC | 0.0114

Study 3 — technique: RNA Bind-n-Seq; molecule type: RNA; medium: in vitro; tested at: 365 nM; relative to: no-protein control; reading: higher = stronger binding
Target: RNA binding protein fox-1 homolog 2, RRM domain, GST-SBP tag (RBFOX2, Homo sapiens, UniProt O43251-10, residues 100-194)
Notes: natural RNA segment, single round, ends assumed
All sequences stand within: GGGAGUUCUACAGUCCGACGAUC … UGGAAUUCUCGGGUGCCAA
Construct (chain): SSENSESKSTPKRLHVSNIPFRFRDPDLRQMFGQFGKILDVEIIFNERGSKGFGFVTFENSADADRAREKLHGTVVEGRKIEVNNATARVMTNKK
Sequence | RBNS enrichment (R)
GUUUUCUUGAAAAGCCUUUCUCUUCCAACCAUGAAUGAACACAAACCACCACAAAACAAGCUUUAUUAACACAGGAGCCUAGUGGGGAUUGCGAAACACAGGAAUGUGCA | 1.13
CCCAACCUCACCCUCCUGACCCCCAUGUAAAUAUUGUUCUGCUGUCUGGGACUCCUGUCUAGGUGCCCCUGAUGACGGGAUGCUCUUUAAAUAAUAAAGAUGGUUUUGAU | 0.258
UCUGGACAGUGCGGUUACAAGCAUUAGUGAGUGUCCUGCUCCACGCCUGUGUGAACCAGGCACAGGAAAACAAACUCCUACAGGCUGUCAUGCUCCUGCAGGAAGAUGAG | 0.48
GAGUCCUGCCUACUUUGACUUUUACGUUCCCAUUCCUGUGUUACCACCUUCCUCCCGAUUUGUUCACCUAUUUUGUGCUUUAAAUCUCAAUAAAAUACUUACUGAGGGAA | 0.464
GCUGUCAUUGCUAGUCGUGCUCUAGCAUACAACCCUGAAACCAUCCUAGGUGACAUUUUAGAAUUAAUACUUAAGUGUUGUUAAAUGGGGACAUGGAGCUUAAUCAUUGG | 0.272
ACUUCUGUAUUUCAAUCAUAUCAUGAACAUUUUAUUUUGCUAAAUCUUGUGUCAUGUGUAGGCUGUAAUAUGUGUACAUUGUGUUUAAGAGAAAAAUGAAACCCACAUGC | 0.413

Further values, each from its own experiment
Substance | target | test | test system | setting | how to read | quantity | value
PhoQ, residues 284 288 289 292 302 303 SQSLSM | PhoP, residues 12 14 15 18 19 NQFFI (Escherichia coli, UniProt P23836) | Sort-seq, item: YFP reporter | E. coli | PhoQ-PhoP variant library, with: 10 µM Mg2+ | relative to: high Mg2+ state, higher = stronger signaling | fold induction | 12.5

A few entries again (study 3):
Sequence | RBNS enrichment (R)
GCUGUCAUUGCUAGUCGUGCUCUAGCAUACAACCCUGAAACCAUCCUAGGUGACAUUUUAGAAUUAAUACUUAAGUGUUGUUAAAUGGGGACAUGGAGCUUAAUCAUUGG | 0.272
ACUUCUGUAUUUCAAUCAUAUCAUGAACAUUUUAUUUUGCUAAAUCUUGUGUCAUGUGUAGGCUGUAAUAUGUGUACAUUGUGUUUAAGAGAAAAAUGAAACCCACAUGC | 0.413
UCUGGACAGUGCGGUUACAAGCAUUAGUGAGUGUCCUGCUCCACGCCUGUGUGAACCAGGCACAGGAAAACAAACUCCUACAGGCUGUCAUGCUCCUGCAGGAAGAUGAG | 0.48
